Literature values that unrelated publications cite.
Compare with care: the assays were run in different laboratories. Numbers after ± are the reported error.
UniProt O43570, sequence (whole entry, looked up): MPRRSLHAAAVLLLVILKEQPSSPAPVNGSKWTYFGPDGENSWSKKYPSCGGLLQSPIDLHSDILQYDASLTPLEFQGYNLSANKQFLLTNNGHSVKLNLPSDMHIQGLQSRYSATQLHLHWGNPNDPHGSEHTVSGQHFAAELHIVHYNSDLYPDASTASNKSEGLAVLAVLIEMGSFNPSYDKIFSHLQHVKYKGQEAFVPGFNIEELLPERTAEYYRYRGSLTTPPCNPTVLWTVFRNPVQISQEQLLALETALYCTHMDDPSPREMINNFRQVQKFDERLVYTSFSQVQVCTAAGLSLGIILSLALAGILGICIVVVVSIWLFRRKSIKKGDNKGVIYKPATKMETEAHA

`Cc1ccccc1-c1cc(N2CCNCC2)ncc1N(C)C(=O)C(C)(C)c1cc(C(F)(F)F)cc(C(F)(F)F)c1` gave an AUC(0-inf) of 8070 ng·h/mL (healthy volunteers, plasma; oral, 450 mg, single dose, added: palonosetron 0.75 mg).
`C=C[C@@H]1C[C@]1(NC(=O)[C@@H]1C[C@@H](Oc2ncc(OC)c3ccccc23)CN1C(=O)[C@@H](NC(=O)OC(C)(C)C)C(C)(C)C)C(=O)NS(=O)(=O)C1CC1` has a tissue concentration of 4.2 µM (rat, liver; oral, 15 mg/kg, 24 h).
The GI50 of `CC(=O)O[C@H]1C2=C(C(=O)C(OC(=O)c3ccc(Cl)cc3)=C(C(C)C)C2=O)[C@@]2(C)CCCC(C)(C)[C@@H]2[C@@H]1OC(=O)c1ccc(Cl)cc1` is reported as > 30 µM (MEL1).
For `CC(C)C[C@@H](NC(=O)[C@@H](CCC(=O)O)NC(=O)[C@@H](CC(C)C)NC(=O)[C@@H](CC(C)C)NC(=O)[C@@H](CC(C)C)NC(=O)[C@H](NC(=O)[C@@H](CCC(=O)O)NC(=O)[C@H](NC(=O)[C@H]1CCCN1C(=O)[C@@H](Cc1ccccc1)NC(=O)[C@@H](CC(C)C)NC(=O)[C@@H](Cc1c[nH]c2ccccc12)NC(=O)[C@@H](CCC(=O)O)NC(=O)[C@@H](CC(C)C)NC(=O)[C@@H](Cc1ccc(O)cc1)NC(=O)[C@@H](CCCNC(=N)N)NC(=O)[C@@H](C)NC(=O)[C@@H](Cc1c[nH]c2ccccc12)NC(=O)[C@H]1CCCN1C(=O)[C@@H](CC(N)=O)NC(=O)[C@@H](CCC(N)=O)NC(=O)[C@@H](CCC(=O)O)NC(=O)[C@@H](CCC(=O)O)NC(=O)[C@@H](CS)NC(=O)[C@@H](C)NC(=S)Nc1ccc(CC2CN(CC(=O)O)CCN(CC(=O)O)CCN2CC(=O)O)cc1)[C@H](C)O)[C@H](C)O)C(=O)O` (stereo partly drawn) [copper-64 labelled], the tumour uptake was 1.36 ± 0.43 %ID/g (tumour; concentration not given).
With `NS(=O)(=O)c1c(F)c(NCCc2ccc(O)cc2)c(SCCO)c(NC2CCCCCCCCCCC2)c1F` the Kd was 0.5 µM (CA12 (Homo sapiens, UniProt O43570); fluorescent thermal shift; pH 7.0, 37 °C, observed).
`CC(=O)O[C@H]1C2=C(C(=O)C(OC(=O)c3ccc(C)cc3)=C(C(C)C)C2=O)[C@@]2(C)CCCC(C)(C)[C@@H]2[C@@H]1O` has a GI50 of 5 to 10 µM (MEL1).
`CN1CCN(c2cc(-c3ccccc3CO)c(N(C)C(=O)C(C)(C)c3cc(C(F)(F)F)cc(C(F)(F)F)c3)cn2)CC1` gave an AUC(0-inf) of 5290 ng·h/mL (cancer patients, plasma; oral, dose not given, netupitant-palonosetron fixed combination, added: etoposide 35-100 mg/m^2 IV).
The GI50 of `CC(=O)O[C@H]1C2=C(C(=O)C(OC(=O)c3ccc(Cl)cc3)=C(C(C)C)C2=O)[C@@]2(C)CCCC(C)(C)[C@@H]2[C@@H]1O` is reported as ≤ 5 µM (MEL1).
For `COCCOCCOCCOCCC(=O)NCc1cc(CNC(=O)CCOCCOCCOCCOC)cc(-c2cc3cc4nc(c(OC)c5[nH]c(cc6nc(cc2[nH]3)CC6(C)C)cc5-c2cc(CNC(=O)CCOCCOCCOCCOC)cc(CNC(=O)CCOCCOCCOCCOC)c2)CC4(C)C)c1`, “fluorescence quantum yield” read 0.16 (PBS; room temperature).
With `O=C(Nc1ccccc1-c1ccc(Br)cc1)c1nccnc1C(F)(F)F` the EC80 was 20 to 100 mg a.i./L (Puccinia triticina; wheat).
The tumour uptake of `N=C(N)NCCC[C@@H]1NC(=O)[C@H](CCCCNC(=O)CN2CCN(CC(=O)O)CCN(CC(=O)O)CCN(CC(=O)O)CC2)NC(=O)[C@@H](Cc2ccc(O)cc2)NC(=O)[C@H](CC(=O)O)NC(=O)CNC1=O` [copper-64 labelled] is reported as ~2.5 %ID/g (mouse, U-87 MG xenograft; 1 h post injection).
`O=C1c2ccccc2-c2c1c1ccc([N+](=O)[O-])cc1c(=O)n2C[C@H](O)[C@@H](O)[C@H](O)[C@H](O)CO` gave a GI50 of 2.61 µM (SF-539; cell growth; CNS cancer panel).
With `CCCC(=O)O[C@@H]1[C@@H](OC(C)=O)C2=C(C(=O)C(O)=C(C(C)C)C2=O)[C@@]2(C)CCCC(C)(C)[C@H]12` the GI50 was 5 to 10 µM (HL-60; cell growth).
`CN1CCC(C)(C)c2cc3c(-c4ccc(C(=S)N5CCCCC5)s4)c4ccc(=[N+](C)C)cc-4sc3cc21` gave a cell-associated fraction of 34 ± 3% (ABCB1 (Homo sapiens, UniProt P08183); substrate; no inhibitor).
`Cc1c(N)c(=O)n(-c2ccccc2)n1C`: protein level “increased” (primary human hepatocytes; item: CYP2B6; concentration not given; reference: untreated).
`NS(=O)(=O)c1c(F)c(F)c(S(=O)(=O)CCc2ccccc2)c(NC2CCCCCCCCCCC2)c1F` has a Kd of 0.71 µM (CA2 (Homo sapiens, UniProt P00918); thermal shift; pH 7.0, 37 °C).
For `CN1C(=O)[C@@H](Cc2ccc(O)cc2)NC(=O)CNC(=O)[C@H](Cc2ccc3ccccc3c2)NC(=O)[C@H](CCCNC(=N)N)NC(=O)[C@H]1CCCNC(=O)c1ccc(CNC(=O)CN2CCN(CC(=O)O)CCN(CC(=O)O)CCN(CC(=O)O)CC2)cc1` [gallium-68 labelled], “absorbed dose coefficient” read 0.011 mGy/MBq (PET dosimetry; human patients, lungs).
With `CC(=O)N1CCC(NC(=O)NC23CC4CC(C)(CC(C2)c2ccccc24)C3)CC1` the inhibition was 19 ± 5% (CYP2C19 (Homo sapiens, UniProt P33261); 10 µM).
`CCC1=C(O)c2c(oc(-c3cccc4ccccc34)cc2=O)C(CC)(CC)C1=O` has an IC50 of 1.55 µM (MCF7; cell growth, SRB).
The kinact of `C=CC(=O)N1CCC[C@@H](n2nc(-c3cn(C)c4ccccc34)c3c(N)ncnc32)C1` is reported as 0.11 ± 0.03 min⁻¹ (EGFR (Homo sapiens, UniProt P00533)).
`O=C1c2ccccc2-c2c1c1ccc([N+](=O)[O-])cc1c(=O)n2C[C@H](O)CO` gave a GI50 of 0.089 µM (HOP-62; cell growth; lung cancer).
`C=C[C@@H]1C[C@]1(NC(=O)[C@@H]1C[C@@H](Oc2cc(-c3ccccc3)nc3cc(OC)ccc23)CN1C(=O)[C@@H](NC(=O)OC(C)(C)C)C(C)(C)C)C(=O)NS(=O)(=O)C1CC1` has a clearance of 16 mL/min/kg (dog; intravenous, dose not given).
For `CC(=O)O[C@H]1C2=C(C(=O)C(O)=C(C(C)C)C2=O)[C@@]2(C)CCCC(C)(C)[C@@H]2[C@@H]1O`, the GI50 was 5 to 10 µM (TK-10; cell growth).
For `Cc1ccccc1-c1cc(N2CC[N+](C)([O-])CC2)ncc1N(C)C(=O)C(C)(C)c1cc(C(F)(F)F)cc(C(F)(F)F)c1`, the Cmax was 219 ng/mL (healthy volunteers, plasma; oral, 450 mg, single dose, added: palonosetron 0.75 mg).
